Results gathered from unrelated publications.
Each line is one published result; not all experiments were run side by side. Values joined by “and” are separate records of one study, mostly repeats; a detail may differ. ≈ marks a conversion by molar mass, not a printed value.

SMILES	organism	test	system	setting	scale	measurement	result
OC(CCN1CCCCC1)(c1ccccc1)C1CC2C=CC1C2 (stereo not drawn)	Toxoplasma gondii	parasite growth, luciferase reporter	HFF, tachyzoite	72 h		EC90	1970 µM
OC(C#Cc1ccc(F)c(F)c1)c1ccccc1 (stereo not drawn)	Pseudomonas aeruginosa	static biofilm	PA14	10 µM, 24 h	baseline: DMSO	biofilm formation	78%
Clc1ccc(C(c2ccc(Cl)cc2)n2cc[n+](CC(OCc3ccc(Cl)cc3Cl)c3ccc(Cl)cc3Cl)c2)cc1 (stereo not drawn)	Toxoplasma gondii	parasite growth	HFF, bradyzoite, glutamine-induced			EC50	2.71 µM
Nc1nc(-c2ccccc2)nc2[nH]nc(Nc3ccc(C(F)(F)F)cc3)c12	coxsackievirus B3		31-1-93, NMRI mice, CVB3 chronic myocarditis	oral, 100 mg/kg twice daily, day 24, dosed days 1 to 7, score scale 0 to 7	direction not given	clinical score	0.11
O=C(C#Cc1ccc(F)c(F)c1)c1cccc(Cl)c1	Pseudomonas aeruginosa	RT-qPCR, measured: phzC1	biofilm cells	10 µM, 24 h	baseline: untreated	mRNA level	49%
O=C(Nc1ccncc1)c1cc([N+](=O)[O-])ccc1Cl	Toxoplasma gondii	parasite growth, luciferase reporter	HFF host cells, tachyzoites	72 h		EC50	0.75 µM
CC(C)n1ncc2c(C(=O)NCC3(C)CNC3)cc(C3CC3)nc21	Enterovirus D68	viral replication	RD, US/MO/14-18947	0.001 µM	baseline: untreated	plaque area	106% and 94.1%
O=C(C#Cc1ccc(F)c(F)c1)c1ccccc1	Pseudomonas aeruginosa	static biofilm	PA14	10 µM, 24 h	baseline: DMSO	biofilm formation	77%
OC(Cn1cncn1)(Cn1cncn1)c1ccc(F)cc1F	Cryptococcus neoformans		H99, RPMI 1640	24 h, 35 °C		MIC	25 µM (≈ 7.66 µg/mL)
OC[C@H]1O[C@@H](O[C@@H]2[C@@H](O)[C@H](O[C@@H]3[C@@H](O)[C@H](O[C@@H]4[C@@H](O)[C@H](O[C@@H]5[C@@H](O)[C@H](O[C@H]6[C@H](O)[C@@H](CO)OC(O)[C@@H]6O)O[C@H](CO)[C@H]5O)O[C@H](CO)[C@H]4O)O[C@H](CO)[C@H]3O)O[C@H](CO)[C@H]2O)[C@H](O)[C@@H](O)[C@@H]1O (stereo partly drawn)	Bacteroides uniformis	binding, ITC		pH 7.0, 25 °C, middle domain		-TΔS	21.9 kcal/mol
CC(=O)[C@]1(O)Cc2c(O)c3c(c(O)c2[C@@H](O[C@H]2C[C@H](N)[C@H](O)[C@H](C)O2)C1)C(=O)c1ccccc1C3=O	Toxoplasma gondii	parasite growth	HFF, bradyzoite, alkaline-induced			EC90	3.18 µM
COc1ccccc1C(=O)C#Cc1ccc(F)c(F)c1	Pseudomonas aeruginosa	RT-qPCR, measured: rhlA	biofilm cells	10 µM, 24 h	baseline: untreated	mRNA level	35%

Some of these lines once more:
SMILES	organism	test	system	setting	scale	measurement	result
O=C(Nc1ccncc1)c1cc([N+](=O)[O-])ccc1Cl	Toxoplasma gondii	parasite growth, luciferase reporter	HFF host cells, tachyzoites	72 h		EC50	0.75 µM
